Measured values of several laboratories.
Parts stem from different laboratories: compare values within a part only.

Study 1
Target: Sal-like protein 4, full length isoform A (SALL4, Homo sapiens, UniProt Q9UJQ4, residues 1-1053)
UniProt Q9UJQ4, sequence (whole entry, looked up): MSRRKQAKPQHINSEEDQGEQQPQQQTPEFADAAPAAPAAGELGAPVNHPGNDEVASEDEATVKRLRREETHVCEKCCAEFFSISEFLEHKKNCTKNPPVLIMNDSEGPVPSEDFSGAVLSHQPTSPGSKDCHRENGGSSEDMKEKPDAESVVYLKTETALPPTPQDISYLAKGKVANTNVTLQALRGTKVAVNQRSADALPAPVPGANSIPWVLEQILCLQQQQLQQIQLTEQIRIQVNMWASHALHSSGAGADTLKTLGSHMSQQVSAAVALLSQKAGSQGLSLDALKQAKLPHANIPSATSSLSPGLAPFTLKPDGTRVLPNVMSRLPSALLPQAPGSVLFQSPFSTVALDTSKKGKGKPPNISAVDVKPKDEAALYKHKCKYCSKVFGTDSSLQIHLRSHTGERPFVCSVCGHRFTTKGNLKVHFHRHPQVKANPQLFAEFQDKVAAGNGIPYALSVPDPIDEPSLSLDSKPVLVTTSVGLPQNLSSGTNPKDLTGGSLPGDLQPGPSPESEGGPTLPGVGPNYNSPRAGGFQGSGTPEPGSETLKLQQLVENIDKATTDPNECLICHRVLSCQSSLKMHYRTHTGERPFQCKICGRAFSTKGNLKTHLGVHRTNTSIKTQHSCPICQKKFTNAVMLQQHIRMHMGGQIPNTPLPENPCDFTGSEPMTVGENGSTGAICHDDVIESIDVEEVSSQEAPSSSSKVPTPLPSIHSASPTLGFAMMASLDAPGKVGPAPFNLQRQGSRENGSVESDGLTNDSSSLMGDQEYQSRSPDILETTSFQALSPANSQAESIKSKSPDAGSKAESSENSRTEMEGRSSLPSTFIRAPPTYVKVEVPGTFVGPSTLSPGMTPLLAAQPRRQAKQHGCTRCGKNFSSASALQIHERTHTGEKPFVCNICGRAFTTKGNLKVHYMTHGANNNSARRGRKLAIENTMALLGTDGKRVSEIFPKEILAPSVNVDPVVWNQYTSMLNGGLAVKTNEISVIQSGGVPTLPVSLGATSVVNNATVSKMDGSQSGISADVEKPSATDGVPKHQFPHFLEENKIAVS
Technique: universal PBM
Molecule type: double-stranded DNA, one strand shown
Matrix: in vitro
Concentration: 600 nM
Setting: 8-mer, flanks averaged, mean of replicates
Reading: higher = stronger binding
With `CGCCCACC` the E-score was -0.322.
With `CAACAATC` the E-score was 0.133.
The E-score of `CGGACCGA` is reported as -0.256.

Study 2
Target: Interferon regulatory factor 5, full length, phosphomimetic (IRF5, Homo sapiens, UniProt Q13568-2, residues 1-514, K96S/S451D/S453D/S456D/S462D)
Technique: protein-binding microarray
Molecule type: double-stranded DNA, one strand shown
Matrix: in vitro
Concentration: 250 nM
Setting: 60-bp whole probe
Added: salmon DNA 0.4 mg/ml
Baseline: random background probes
Reading: higher = stronger binding
`GCCTAGCACTTAGAACTCGGGTATCGATTAGTGCTAGTCTTGATTCGCTTGACGCTGCTG` has a log fluorescence of 3.35 z-score.
`GCCTAGCACCCAGCTCTTTCGTTACTTCCTGTGCTAGTCTTGATTCGCTTGACGCTGCTG` gave a log fluorescence of 5.01 z-score.
`GCCTAGCACCTGCCTAACATGCTTCGAGATGTGCTAGTCTTGATTCGCTTGACGCTGCTG` has a log fluorescence of -0.152 z-score.
`GCCTAGCACGTGAGTCCCACATCTCTGTCCGTGCTAGTCTTGATTCGCTTGACGCTGCTG` has a log fluorescence of -0.307 z-score.

Study 3
Target: Histone acetyltransferase KAT6A, winged helix 1, GST fusion (KAT6A, Homo sapiens, UniProt Q92794, residues 1-85)
Technique: protein binding microarray
Molecule type: double-stranded DNA, one strand shown
Matrix: in vitro
Concentration: not given
Setting: 8-mer, flanks averaged, mean of 2 arrays, mostly near background
Baseline: not given
Reading: higher = stronger binding
Construct (chain): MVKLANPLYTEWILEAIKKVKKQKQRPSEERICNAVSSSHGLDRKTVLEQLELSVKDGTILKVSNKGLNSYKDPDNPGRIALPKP
`AATCAGTA` gave an E-score of -0.148.
`AGCCGACT` gave an E-score of 0.218.
For `GGGCAAGA`, the E-score was -0.0808.
The E-score of `GACCTAGA` is reported as 0.112.
`AACACAGC` gave an E-score of -0.106.

Further values, each from its own experiment
For `PhoQ, residues 284 288 289 292 302 303 TAVSDG`, the fold induction was 0.566 (PhoP, residues 12 14 15 18 19 NIMAP (Escherichia coli, UniProt P23836); Sort-seq, refers to: YFP reporter; E. coli; PhoQ-PhoP variant library, added: 10 µM Mg2+; baseline: high Mg2+ state, higher = stronger signaling).

Repeated from above (study 3):
`AGCCGACT` gave an E-score of 0.218.
